# Results gathered from unrelated publications.
# ± marks the error that the study gave.
# Target: Metallo-beta-lactamase type 2 (blaNDM-1, Klebsiella pneumoniae, UniProt C7C422)
# Sequence of UniProt C7C422 (whole entry, looked up): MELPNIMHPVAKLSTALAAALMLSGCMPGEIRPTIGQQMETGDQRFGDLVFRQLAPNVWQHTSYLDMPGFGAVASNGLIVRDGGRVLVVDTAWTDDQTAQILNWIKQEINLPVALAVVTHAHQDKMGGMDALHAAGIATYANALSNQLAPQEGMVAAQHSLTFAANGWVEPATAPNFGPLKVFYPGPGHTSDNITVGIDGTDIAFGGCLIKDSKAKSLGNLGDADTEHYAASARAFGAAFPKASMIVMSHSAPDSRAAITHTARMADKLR
# Read-out: enzyme activity
# Mode: inhibitor
Structure (SMILES),assay,conditions,IC50 [µM]
O=[N+]([O-])c1c(Br)c(Cl)c2cccnc2c1O,,pH 7.5,1.03
C[C@H](CS)C(=O)Nc1cccc(-c2nn[nH]n2)c1,fluorescence,with preincubation,0.396
COCc1c(C(=O)O)nnn1Cc1c(F)cccc1Cl,fluorescence,with preincubation,196
O=C(O)CNCC(=O)O,fluorescence,,> 200
C[C@H](CS)C(=O)Nc1ccccc1-c1nn[nH]n1,fluorescence,with preincubation,10.8
O=C(O)CNC(CO)(CO)CO,fluorescence,,> 200
CN[C@H](CC(C)C)C(=O)N[C@H]1C(=O)N[C@@H](CC(N)=O)C(=O)N[C@H]2C(=O)N[C@H]3C(=O)N[C@H](C(=O)N[C@H](C(=O)O)c4cc(O)cc(O)c4-c4cc3ccc4O)[C@H](O)c3ccc(c(Cl)c3)Oc3cc2cc(c3O[C@@H]2O[C@H](CO)[C@@H](O)[C@H](O)[C@H]2O[C@H]2C[C@](C)(NCc3ccc(C(=O)OCCCCCCN(Cc4ccccn4)Cc4ccccn4)cc3)[C@H](O)[C@H](C)O2)Oc2ccc(cc2Cl)[C@H]1O,fluorescence,,0.2
O=C(O)C(c1ccccc1)n1cnnn1 (stereo not drawn),fluorescence,with preincubation,> 1000
N[C@@H](CN[C@@H](CN[C@@H](CC(=O)O)C(=O)O)C(=O)O)C(=O)O,,Zn2+ 10 µM supplemented,13 ± 0.2
Cn1nnc(-c2ccccc2NC(=O)CCS)n1,fluorescence,"10 min preincubation, added: FC5 substrate",20
O=C(O)CCc1c(C(=O)O)[nH]c2ccccc12,fluorescence,with preincubation,0.67
CCCn1nnc(-c2ccccc2NC(=O)[C@H](C)CS)n1,fluorescence,with preincubation,0.83
O=C(O)CN(CCO)CCO,fluorescence,,> 200
CC(C)Cn1nnc(-c2ccccc2NC(=O)[C@H](C)CS)n1,fluorescence,with preincubation,2.59
O=C(O)c1ncsc1-c1ccccc1,fluorescence,with preincubation,532

# A few entries again:
Structure (SMILES),assay,conditions,IC50 [µM]
C[C@H](CS)C(=O)Nc1cccc(-c2nn[nH]n2)c1,fluorescence,with preincubation,0.396
COCc1c(C(=O)O)nnn1Cc1c(F)cccc1Cl,fluorescence,with preincubation,196
